Measurements pooled from the literature.
Each line is one published result; not all experiments were run side by side. Numbers after ± are the reported error. In brackets after ≈: the same amount, converted by molar mass.

Oc1ccc2c3c(cnc2c1)-c1ccc(C(F)(F)F)cc1O[C@@H]3c1ccc(OCCN2CC(CF)C2)cc1  AUC(0-tlast) (healthy fasted women, plasma; oral tablets, 400 mg): 1900 ng·h/mL
CN[C@H](CC(C)C)C(=O)N[C@H]1C(=O)N[C@@H](CC(N)=O)C(=O)N[C@H]2C(=O)N[C@H]3C(=O)N[C@H](C(=O)N[C@H](C(=O)O)c4cc(O)cc(O)c4-c4cc3ccc4O)[C@H](O)c3ccc(c(Cl)c3)Oc3cc2cc(c3O[C@@H]2O[C@H](CO)[C@@H](O)[C@H](O)[C@H]2O[C@H]2C[C@](C)(N)[C@H](O)[C@H](C)O2)Oc2ccc(cc2Cl)[C@H]1O  time above MIC (microdialysis; pig, Danish Landrace, cancellous bone; intravenous, 1000 mg over 100 min, 450 min dosing interval, together with: 4.0 µg/mL MIC; relative to: dosing interval): 66%
C[C@]12CC[C@@H]3c4ccc(O)cc4CC[C@H]3[C@@H]1C[C@@H](O)[C@@H]2O  mean serum concentration (GC-MS; breast cancer women on NSAI, serum; vaginal, 0.03 mg daily, 3 h, day 28): 0.00248 ng/mL
Cn1c(-c2ccc(C(N)=O)cc2F)nnc1C(C)(C)Oc1c(F)cc(Cl)cc1F  Cmax range over subjects (young non-Japanese adults, plasma; oral, 50 mg single dose, day 1, high-dose multiple-dose study): 341 to 632 ng/mL
COc1ccc(-c2oc3c(OC)c(OC)c(OC)c(O)c3c(=O)c2OC)cc1OC  tissue to peel content ratio (C57BL/6 mouse, male, small intestine; oral, 1% w/w in diet, 6 weeks, orange peel extract diet; relative to: content in orange peel): 1.95%
CC(/C=C/C=C(\C)C(=O)O)=C\C=C\C=C(C)\C=C\C=C(/C)C(=O)O  solubility (shake-flask; FeSSGF; 1 h, pH 5.0, 37 °C): < 0.5 µg/mL
CN(CCC(=O)O)C(=O)c1ccc2c(c1)CC[C@@H]1[C@@H]2CC[C@]2(C)C(c3cncc(F)c3)=CC[C@@H]12  exposure margin (measured: unbound AUC(0-24) steady state; Wistar rat, female; 70 mg/kg; relative to: animal over human at 60 mg BID): ~21 fold
GGTFXGYWADLXAF (side-chain stapled)  helicity (CD; peptide, water/acetonitrile 1:1; 10 µM, non-stabilised peptide): 17%
C#C[C@]1(CO)O[C@@H](n2cnc3c(N)nc(F)nc32)C[C@@H]1O  AUC(0-inf) (human, plasma; oral, 200 mg, single dose, fasted): 25.6 µM·h
COC(=O)N[C@H](C(=O)N[C@@H](Cc1ccccc1)[C@@H](O)CN(Cc1ccc(-c2ccccn2)cc1)NC(=O)[C@@H](NC(=O)OC)C(C)(C)C)C(C)(C)C  particle permeability (modified PAMPA Franz cell; phosphate buffer with HPMCAS; stock 20 mg/mL, 3 h, 37 °C, 460 nm particles, 300 rpm, together with: 3% BSA receiver): 22.9 ± 1.3 ×10⁻⁶ cm/s
COC(=O)N[C@H](C(=O)N[C@@H](Cc1ccccc1)[C@@H](O)CN(Cc1ccc(-c2ccccn2)cc1)NC(=O)[C@@H](NC(=O)OC)C(C)(C)C)C(C)(C)C  Vd/F (population PK model; pregnant women, second trimester; oral, median, together with: without tenofovir): 84 L
O=C(CCCCCCC(=O)Nc1ccccc1)NO  AUC(0-7 h) (patients, serum; oral, 1000 mg, cycle 1 day 2, together with: flavopiridol 30+30 mg/m2): 40.2 µM·h
Cc1[nH]c(=O)c(CNC(=O)c2cc([N+](=O)[O-])co2)c2c1CCCC2  kinetic solubility (U-HPLC; 20% DMSO in water): 178 µg/mL (≈ 538 µM)
Oc1ncnc2[nH]ncc12  AUC(0-24) ratio (human, male, plasma; oral, 10 mg, together with: allopurinol 300 mg; relative to: combination over alone): 102%
CC(C)=CCC[C@](C)(O[C@@H]1O[C@H](CO[C@@H]2O[C@H](CO)[C@@H](O)[C@H](O)[C@H]2O)[C@@H](O)[C@H](O)[C@H]1O)[C@H]1CC[C@]2(C)[C@@H]1[C@H](O)C[C@@H]1[C@@]3(C)CC[C@H](O[C@@H]4O[C@H](CO)[C@@H](O)[C@H](O)[C@H]4O[C@@H]4O[C@H](CO)[C@@H](O)[C@H](O)[C@H]4O)C(C)(C)[C@@H]3CC[C@]12C  post-preparative stability accuracy (rat, extracted plasma QC samples; 5.0 µg/mL, 24 h, 15 °C, autosampler): 102 ± 7.5%
COc1cc2c(cc1OC)[C@@H]1Cc3ccc(OC)c(OC)c3CN1CC2  measured concentration (rat plasma QC sample; 2 ng/mL nominal, 15 days, -80 °C, low QC level storage stability): 1.98 ± 0.1 ng/mL
CC1=C2C[C@H]3[C@@H](CC[C@@H]4C[C@H](NS(C)(=O)=O)CC[C@@]43C)[C@@H]2CC[C@@]2(C1)O[C@@H]1C[C@H](C)CN[C@H]1[C@H]2C  AUC(0-24) (patients, plasma; oral, 20 mg single, day -7, cycle 1): 58.5 ng·h/mL
Cc1[nH]c2ccccc2c1CCNCc1ccc(/C=C/C(=O)NO)cc1  maximum serum creatinine (human; concentration not given, day 7, together with: doxazosin, irbesartan, hydrochlorothiazide): 1.72 mg/dL
Cc1nc2cccc(OCC(C)(C)C(=O)NC(C)C)c2c(N)c1C(=O)O  AUC(0-t) (female Sprague-Dawley rat, plasma; oral, 10 mg/kg): 58.9 ng·h/mL
Cc1ccc(NC(=O)c2ccc(CN3CCNCC3)cc2)cc1Nc1nccc(-c2cccnc2)n1  volume of distribution (human, plasma; oral, 400 mg imatinib first dose, day 1 of cycle 1, metabolite of imatinib alone, mean): 1360 L
CN(C)C(=N)N=C(N)N  hepatocyte necrosis score (Sprague-Dawley rat, male, liver; oral, 100 mg/kg, 24 h, single low dose; direction not given): 0
CC[C@H](C)[C@H](NC(=O)[C@H](Cc1ccccc1)NC(=O)[C@H](CCC(=O)O)NC(=O)[C@H](CCCCNC(=O)COCCOCCNC(=O)COCCOCCNC(=O)CC[C@H](NC(=O)CCCCCCCCCCCCCCCCC(=O)O)C(=O)O)NC(=O)[C@H](C)NC(=O)[C@H](C)NC(=O)[C@H](CCC(N)=O)NC(=O)CNC(=O)[C@H](CCC(=O)O)NC(=O)[C@H](CC(C)C)NC(=O)[C@H](Cc1ccc(O)cc1)NC(=O)[C@H](CO)NC(=O)[C@H](CO)NC(=O)[C@@H](NC(=O)[C@H](CC(=O)O)NC(=O)[C@H](CO)NC(=O)[C@@H](NC(=O)[C@H](Cc1ccccc1)NC(=O)[C@@H](NC(=O)CNC(=O)[C@H](CCC(=O)O)NC(=O)C(C)(C)NC(=O)[C@@H](N)Cc1cnc[nH]1)[C@@H](C)O)[C@@H](C)O)C(C)C)C(=O)N[C@@H](C)C(=O)N[C@@H](Cc1c[nH]c2ccccc12)C(=O)N[C@@H](CC(C)C)C(=O)N[C@H](C(=O)N[C@@H](CCCNC(=N)N)C(=O)NCC(=O)N[C@@H](CCCNC(=N)N)C(=O)NCC(=O)O)C(C)C  average steady-state concentration (human highest body weight; 0.5 mg once weekly, 116.8-198.3 kg): 10.5 nmol/L
O=c1cc[nH]c(=O)[nH]1  terminal half-life (UHPLC-MS; male CD-1 mice, plasma; intravenous, 1 mg/kg, from 4 h postdose): 10 h
CC(C)=CCC[C@](C)(O[C@@H]1O[C@H](CO)[C@@H](O)[C@H](O)[C@H]1O)[C@H]1CC[C@]2(C)[C@@H]1[C@H](O)C[C@@H]1[C@@]3(C)CC[C@H](O)C(C)(C)[C@@H]3[C@@H](O[C@@H]3O[C@H](CO)[C@@H](O)[C@H](O)[C@H]3O)C[C@]12C  post-preparative stability accuracy (rat, extracted plasma QC samples; 0.5 µg/mL, 24 h, 15 °C, autosampler): 93.6 ± 6.3%
COc1ccc(-c2cc(=O)c3c(O)c(OC)c(OC)c(OC)c3o2)cc1OC  tissue to peel content ratio (C57BL/6 mouse, male, small intestine; oral, 1% w/w in diet, 6 weeks, orange peel extract diet; relative to: content in orange peel): 17.6%
CCCC[C@H](NC(C)=O)C(=O)N[C@H]1CCC(=O)NC[C@@H](C(=O)N[C@@H](Cc2c[nH]c3ccccc23)C(N)=O)NC(=O)[C@H](CCCNC(=N)N)NC(=O)[C@@H](Cc2ccccc2)NC(=O)[C@H](Cc2c[nH]cn2)NC1=O  AUC(0-last) (beagle dog, male, plasma; subcutaneous, 1.5 mg/kg daily, day 1): 247 ng·h/mL
Cc1ccc(NC(=O)c2ccc(CN3CCN(C)CC3)cc2)cc1Nc1nccc(-c2cncc(-c3oncc3C)c2)n1  dose-normalised Cmax (Parkinson's disease patients, plasma; oral, 100 mg once daily, day 7, 7-day dosing, mean): 33.2 ng/mL/mg
COc1cccc(N2CCN(C3=Nc4c(F)cccc4[C@H](CC(=O)O)N3c3cc(C(F)(F)F)ccc3OC)CC2)c1  terminal half-life (UHPLC-MS/MS; healthy women, plasma; intravenous infusion, 960 mg single dose, 60 min infusion, HPβCD formulation): 12.9 ± 4.5 h
CCCOc1ccc([C@H]2CNC(=O)N2c2ccc3[nH]cnc3c2)cc1  CSF concentration (human, fasted, elderly, CSF; oral, 300 mg twice daily, capsule, 12 h, day 7, minimum, estimated): 12.5 ng/mL
